Experimental data pooled from the literature.
Compare with care: the assays were run in different laboratories. “And” joins repeats or separate records; there may be more than shown. ± marks the error that the study gave.
Cell line: MCF7

SMILES	test	setting	scale	measurement	result
COCCCCCNc1nc(NCCCCCCN(C)C)c2cc(NC(=O)/C=C/CN(C)C)ccc2n1	CellTiter-Glo	1.562 µM, 72 h, unit not given	relative to: DMSO-treated cells	viability	0.882 and 0.917
CC(C)C[C@@H](NC(=O)[C@H](C)NC(=O)CNC(=O)[C@@H](NC=O)C(C)C)C(=O)N[C@@H](C)C(=O)N[C@@H](C(=O)N[C@H](C(=O)N[C@@H](C(=O)N[C@@H](Cc1c[nH]c2ccccc12)C(=O)N[C@H](CC(C)C)C(=O)N[C@@H](Cc1c[nH]c2ccccc12)C(=O)N[C@H](CC(C)C)C(=O)N[C@@H](Cc1c[nH]c2ccccc12)C(=O)N[C@H](CC(C)C)C(=O)N[C@@H](Cc1c[nH]c2ccccc12)C(=O)NCCO)C(C)C)C(C)C)C(C)C	flow cytometry	500 nM, 48 h		cells in G2/M phase	24.9 ± 0.67%
CCCCCCCCCCCCNC(=S)NCCCC[C@H](NC(=O)OCc1ccccc1)C(=O)N[C@H](C)C(=O)N[C@@H](CCCNC(=N)N)C(N)=O	cell growth or viability, MTT	72 h		EC50	28.7 to 45.6 µM
CCN1C(=O)CS/C1=N/N=C(\C)c1c(O)c2ccccc2oc1=O	cell growth, MTT		relative to: IC50 BJ-1 over MCF7	selectivity index	> 4.13
CC(=O)[O][Pd][c]1cc(C)ccc1N1N=C(C)C(C)(C)C1=O.CC(=O)[O][Pd][c]1cc(C)ccc1N1N=C(C)C(C)(C)C1=O	FLICA flow cytometry	25 µM, 24 h		caspase-9 active cells	21.6 ± 5.37%
COC(=O)c1cc(NC2=NC(=O)C(=Cc3ccc(N(C)C)cc3)S2)ccc1OC(C)=O	item: RIF1 mRNA	0.81 µM, 24 h	relative to: DMSO	fold change	0.317
O=C(CCl)c1ccccc1Nc1cccc(C(F)(F)F)c1	firefly luciferase reporter	100 µM, 6 h	relative to: vehicle	TEAD reporter activity	0.1 ± 0.1%
CSC(=NN=C(C)c1ccc(S(=O)(=O)N2CCC(C)CC2)cc1)N(C)C	flow cytometry	4.29 µM (IC50), 72 h		cells in pre-G1 phase	16.2%
C[C@@H]1CC[C@@H]([C@](O)(CNCc2cccc(F)c2)COCc2ccccc2)[C@H](OCc2ccccc2)C1	cell growth or viability, MTT	30 µM, 72 h		inhibition	96.2%
CSC(=S)N/N=C(\C)c1ccc(S(=O)(=O)N2CCC(C)CC2)cc1	flow cytometry	4.29 µM (IC50), 72 h		cells in S phase	29.8%
COc1cccc(CNC[C@](O)(COCc2ccccc2)[C@@H]2CC[C@@H](C)C[C@H]2OCc2ccccc2)c1	cell growth or viability, MTT	30 µM, 72 h		inhibition	95.1%
CC(=NN=c1sc(C(=O)c2ccccc2)nn1-c1ccccc1)c1ccc(S(=O)(=O)N2CCC(C)CC2)cc1	annexin V/PI	concentration not given, 72 h, at IC50		necrotic cells	1.66%
CCC(=CCc1c(O)cc2c(c1O)C(=O)CC(c1ccccc1O)O2)CC (stereo not shown)	cytotoxicity, MTT	54.29 µM, 48 h		growth inhibition	31.7%
Oc1ccnc(-c2cc(O)ccn2)c1.[Cl-].[Cl-].[Ru+2].c1ccc(-c2ccnc3c2ccc2c(-c4ccccc4)ccnc23)cc1.c1ccc(-c2ccnc3c2ccc2c(-c4ccccc4)ccnc23)cc1	CCK-8 viability	white light 2 h		EC50	0.5 µM
COc1ccccc1CNC[C@@](O)(COCc1ccccc1)[C@@H]1CC[C@@H](C)C[C@H]1OCc1ccccc1	cell growth or viability, MTT	30 µM, 72 h		inhibition	94.8%
Cc1cc(C)nc(SCC(=O)Nc2ncc(Cc3cccc4ccccc34)s2)n1	cell viability, MTS	10 µM		inhibition	16.2 ± 3.5%
C[C@@H]1CC[C@@H]([C@](O)(CNCc2ccccc2F)COCc2ccccc2)[C@H](OCc2ccccc2)C1	cell growth or viability, MTT	30 µM, 72 h		inhibition	98.4%

SMILES	test	setting	scale	measurement	result
CCCCCCCCCCCCCC(=S)NCCCC[C@H](NS(C)(=O)=O)C(=O)N[C@@H](C)C(=O)N[C@@H](CCCNC(=N)N)C(N)=O	cell growth or viability, MTT	72 h		EC50	28.4 to 34.3 µM
C=CCc1c(O)cc2c(c1O)C(=O)CC(c1ccc(O)cc1)O2 (stereo not shown)	cytotoxicity, MTT	16.01 µM, 48 h		growth inhibition	-6.76%
C[C@@H]1CC[C@@H]([C@](O)(COCc2ccccc2)Cn2cnc3ccccc32)[C@H](OCc2ccccc2)C1	cell growth or viability, MTT	10 µM, 72 h		inhibition	84.3%
CCC(=CCc1c(O)cc2c(c1O)C(=O)CC(c1cccc(O)c1)O2)CC (stereo not shown)	cytotoxicity, MTT	54.29 µM, 48 h		growth inhibition	59.9%
Cc1c(COc2cc(OCc3cccc(C#N)c3)c(CNC(CO)(CO)CO)cc2Cl)cccc1-c1cccc(OCCCCCC(=O)NO)c1	flow cytometry, PI staining	20 µM, 48 h		G1 phase cells	64.2%
COc1ccc(CNC[C@@](O)(COCc2ccccc2)[C@@H]2CC[C@@H](C)C[C@H]2OCc2ccccc2)cc1	cell growth or viability, MTT	10 µM, 72 h		inhibition	93.3%
COC(=O)c1cc(NC2=NC(=O)C(=Cc3ccc(C)cc3)S2)ccc1OC(C)=O	GC-MS, item: Pyroglutamic acid	1 µM	relative to: DMSO	metabolite level	-0.14 fold change
COc1ccc(COC[C@](O)(CNCc2ccc(F)cc2)[C@@H]2CC[C@@H](C)C[C@H]2OCc2ccc(OC)cc2)cc1	cell growth or viability, MTT	30 µM, 72 h		inhibition	102%
CCN(C(=O)c1cc(F)ccc1Oc1nncnc1N1CCC2(C1)CN([C@H](CCCN(C)CCOC)C(C)C)C2)C(C)C	cell growth or viability	7 days		GI50	> 10 µM
CC(=O)[O][Pd][c]1ccccc1-n1nc(C)cc1C.CC(=O)[O][Pd][c]1ccccc1-n1nc(C)cc1C	PI flow cytometry	25 µM, 24 h		S phase cells	40.5 ± 1.63%
CC[C@@H]([C@H](CC)c1ccc(O)cc1)[C@@H](C)c1ccc(O)cc1	cell growth or viability, ATP luminescence	5 days		EC50	0.0097 µM
CCC(=CCc1c(O)cc2c(c1O)C(=O)CC(c1ccc(OC)c(O)c1)O2)CC (stereo not shown)	cytotoxicity, MTT	100.4 µM, 48 h		growth inhibition	95.2%
C[C@@H]1CC[C@@H]([C@@](O)(CNCc2ccc(F)cc2)COCc2ccccc2)[C@H](OCc2ccccc2)C1	cell growth or viability, MTT	10 µM, 72 h		inhibition	82.9%
CCC(=CCc1c(O)cc2c(c1O)C(=O)CC(c1ccc(O)cc1)O2)CC (stereo not shown)	cytotoxicity, MTT	108.6 µM, 48 h		growth inhibition	83.6%
Cc1c(C)c2cccnc2c2ncccc12.Cc1ccc2c(Cl)cc(Cl)c([O-])c2n1.Cc1ccc2c(Cl)cc(Cl)c([O-])c2n1.[Co+2]	cell growth or viability, MTT	48 h		IC50	5.67 µM
CC(=O)[O][Pd][c]1ccccc1N1N=C(C)C(C)(C)C1=O.CC(=O)[O][Pd][c]1ccccc1N1N=C(C)C(C)(C)C1=O	FLICA flow cytometry	25 µM, 24 h		caspase-3/7 active cells	44.2 ± 3.35%
COc1ccc(C2CC(=O)c3c(cc(O)c(CC=C(C)C)c3O)O2)cc1 (stereo not shown)	cytotoxicity, MTT	14.11 µM, 48 h		growth inhibition	0.003%

A few entries again:
SMILES	test	setting	scale	measurement	result
COc1ccccc1CNC[C@@](O)(COCc1ccccc1)[C@@H]1CC[C@@H](C)C[C@H]1OCc1ccccc1	cell growth or viability, MTT	30 µM, 72 h		inhibition	94.8%
Cc1cc(C)nc(SCC(=O)Nc2ncc(Cc3cccc4ccccc34)s2)n1	cell viability, MTS	10 µM		inhibition	16.2 ± 3.5%
